Measured values of several laboratories.
Each line is one published result; not all experiments were run side by side. Values joined by “and” are separate records of one study, mostly repeats; a detail may differ. ± marks the error that the study gave. In brackets after ≈: the same amount, converted by molar mass.

SMILES	target or system	test	system	setting	how to read	quantity	value
CC1=C(Cn2cc(CNC(=O)OC(C)(C)C)nn2)C(=O)c2ccccc2C1=O	Schistosoma mansoni	–	adult worms	25 µM, 48 h	–	killing	54.5%
N=C(N)c1ccc(OCCCCCOc2ccc(C(=N)N)cc2)cc1	Escherichia coli	–	BW25113	concentration not given, lowest-FICI combination, together with: novobiocin	–	MIC in combination	50 µg/mL
C[C@H](CCCC(C)(C)O)[C@H]1CC[C@H]2[C@@H]3CC=C4C[C@@H](O)CC[C@]4(C)[C@H]3CC[C@]12C	Human rotavirus	–	MA104, Wa	–	–	EC50	160 nM
COc1ccc(Nc2cnnc3ccc(-c4cnc(N5CCCN(C)CC5)nc4)cc23)cc1Cl	Schistosoma mansoni	–	adult worms	10 µM, 1 h	direction not given	phenotypic severity score	1
CN(C)c1ccc(O)c2c1C[C@H]1C[C@H]3[C@H](N(C)C)C(O)=C(C(N)=O)C(=O)[C@@]3(O)C(O)=C1C2=O	Brugia malayi	–	SCID mouse	dose not given, 6 weeks post-treatment, dosing x28d	–	mice with microfilariae	0%
Fc1cccc(N/N=C/c2ccc(-c3cccc(/C=N/Nc4cccc(F)c4)c3)cc2)c1	Aspergillus terreus	–	ATCC MYA-3633	–	baseline: mammalian CC50 over MIC	selectivity ratio	< 0.4
Cc1cc(OC(C)C)ccc1C(=O)C(C)(C)NC(=O)c1sccc1C	Botrytis cinerea	mycelial growth	B05.10	0.003 µg/mL	–	inhibition	29.2 ± 19.9%
O=[N+]([O-])c1cc(F)c(-c2c(Cl)nc(-c3cccs3)nc2NCC2CCC2)c(F)c1	Schistosoma mansoni	worm motility	adult worms ex vivo	24 h	–	EC50	< 300 nM
CC1=C(Cn2cc(CO)nn2)C(=O)c2ccccc2C1=O	Schistosoma mansoni	–	adult worms	10 µM, 72 h	–	killing	43.8%
OCCN(CCO)c1nc(-c2cccs2)nc(Cl)c1-c1c(F)cc(F)cc1F	Schistosoma mansoni	worm motility	adult worms ex vivo	24 h	–	EC50	3540 nM
Nc1nc(-c2ccccc2)nc2[nH]nc(Nc3ccc(C(F)(F)F)cc3)c12	coxsackievirus B3	–	31-1-93, NMRI mice, CVB3 chronic myocarditis	oral, 100 mg/kg twice daily, day 5, dosed days 3 to 10, score scale 0 to 7	direction not given	clinical score	0.7
CN[C@H](CC(C)C)C(=O)N[C@H]1C(=O)N[C@@H](CC(N)=O)C(=O)N[C@H]2C(=O)N[C@H]3C(=O)N[C@H](C(=O)N[C@H](C(=O)O)c4cc(O)cc(O)c4-c4cc3ccc4O)[C@H](O)c3ccc(c(Cl)c3)Oc3cc2cc(c3O[C@@H]2O[C@H](CO)[C@@H](O)[C@H](O)[C@H]2O[C@H]2C[C@](C)(N)[C@H](O)[C@H](C)O2)Oc2ccc(cc2Cl)[C@H]1O	Staphylococcus epidermidis	–	methicillin-resistant, 10 isolates	pH 7.0	–	MIC50	1 µg/mL (≈ 0.69 µM)
O=C(O)c1ccc(-n2nc(-c3ccccc3O)nc2-c2ccccc2O)cc1	Nedd8-cullin1 interaction	neddylation, AlphaScreen	–	100 µM	–	inhibition	-151%
CCOC(=O)C1=C(CN2CCCC2C(=O)Nc2ccc(B(O)O)cc2)NC(c2nccs2)=NC1c1ccc(F)cc1Br (stereo not drawn)	Hepatitis B virus	HBV DNA reduction, qPCR, refers to: positive-strand DNA	HepDES19	3 days	–	EC50	220 ± 80 nM
CC1=C(Cc2cn(Cc3ccccc3)nn2)C(=O)c2ccccc2C1=O	Schistosoma mansoni	–	adult worms	25 µM, 48 h	–	killing	56.3%
COc1ccc(Nc2cnnc3ccc(-c4ccc(S(=O)(=O)N5CCN(C)CC5)cc4)cc23)cc1	Schistosoma mansoni	–	adult worms	10 µM, 5 h	direction not given	phenotypic severity score	0
C[C@H]1c2cccc(O)c2C(=O)C2=C(O)[C@]3(O)C(=O)C(C(N)=O)=C(O)[C@@H](N(C)C)[C@@H]3[C@@H](O)[C@@H]21	Brugia malayi	–	SCID mouse	dose not given, 6 weeks post-treatment, dosing x42d	–	maximum adult worm burden	12 worms per mouse
CC(C)n1ncc2c(C(=O)NCC3(C)CNC3)cc(C3CC3)nc21	Enterovirus D68	cytopathic effect	RD, US/KY/14-18953	150 nM	–	cell protection	10.7% and 9.15% and 6.76%
CCON=C1C=CC(=C(C#N)c2ccccc2)C=C1	Kluyveromyces marxianus	broth dilution	ATCC 204093	48 h, 37 °C	–	MFC	256 µg/mL (≈ 1020 µM)
COC(=O)[C@H](Cc1ccc(O)cc1)NCc1cc2ccccc2nc1SC	Pseudomonas aeruginosa	–	–	2 µg/mL, together with: pentamidine 50 µM	baseline: control	growth	100%
C(=N\Nc1ccccc1)/c1ccc(-c2ccc(/C=N/Nc3ccccc3)cc2)cc1	Candida albicans	–	ATCC MYA-1237 resistant	–	baseline: mammalian CC50 over MIC	selectivity index	< 0.6
C=CC[C@@H]1c2ccc(OC)c(OC)c2CN2CCc3cc4c(cc3[C@H]12)OCO4	Staphylococcus aureus	–	P2rx7+/+ mice, skin wound infection	dose not given, day 4	baseline: day 0	relative wound size	0.54 and 1.12 and 0.63 and 0.24 and 0.34 and 0.35
CC1=C(Cn2ccnc2[N+](=O)[O-])C(=O)c2ccccc2C1=O	Schistosoma mansoni	–	adult worms	10 µM, 72 h	–	killing	44.4%

SMILES	target or system	test	system	setting	how to read	quantity	value
CN1CCN(S(=O)(=O)c2ccc(-c3ccc4nncc(Nc5cnccn5)c4c3)cc2)CC1	Schistosoma mansoni	–	adult worms	10 µM, 5 h	direction not given	phenotypic severity score	0
CC(=O)ON=C1C=CC(=C(C#N)c2ccccc2)C=C1	Kluyveromyces marxianus	broth dilution	ATCC 204093	48 h, 37 °C	–	MFC	16 µg/mL (≈ 60.5 µM)
Cc1ccc(NC(=O)N2Cc3[nH]cnc3C[C@H]2c2nc(-c3ccc4c(c3)OCO4)no2)cc1	Caenorhabditis elegans	–	N2	1.56 µM	–	median lifespan	21 days
C[C@@H](CO)CCC[C@@H](C)[C@H]1CC[C@H]2[C@@H]3CC=C4C[C@@H](O)CC[C@]4(C)[C@H]3CC[C@]12C	Human rotavirus	–	Caco-2, Wa	–	–	EC50	440 nM
CC1=C(Cn2cc(C(C)(C)O)nn2)C(=O)c2ccccc2C1=O	Schistosoma mansoni	–	adult worms	10 µM, 72 h	–	killing	40.8%
CC(=O)NC[C@H]1CN(c2ccc(N3CCOCC3)c(F)c2)C(=O)O1	Staphylococcus aureus	–	MRSA, 10 isolates	serum 50%	–	MIC50	2 µg/mL (≈ 5.93 µM)
COc1ccc(Nc2cnnc3ccc(-c4cnc(N5CCN(C)CC5)nc4)cc23)cc1	Schistosoma mansoni	–	adult worms	10 µM, 5 h	direction not given	phenotypic severity score	0
CC1=C(Cn2cnc([N+](=O)[O-])n2)C(=O)c2ccccc2C1=O	Schistosoma mansoni	–	adult worms	10 µM, 48 h	–	killing	40.7%
COc1ccc(Nc2cnnc3ccc(-c4cnc(N5CCCN(C)CC5)nc4)cc23)cc1	Schistosoma mansoni	–	adult worms	10 µM, 24 h	direction not given	phenotypic severity score	1
CC1=C(Cc2cn(CCOS(=O)(=O)c3ccc(C)cc3)nn2)C(=O)c2ccccc2C1=O	Schistosoma mansoni	–	adult worms	10 µM, 24 h	–	killing	33.6%
COc1ccc(Nc2cnnc3cc(-c4ccc(S(=O)(=O)N5CCN(C)CC5)cc4)ccc23)cc1	Schistosoma mansoni	–	adult worms	10 µM, 48 h	direction not given	phenotypic severity score	0
CC1=C(Cn2cc(CBr)nn2)C(=O)c2ccccc2C1=O	Schistosoma mansoni	–	NTS	–	baseline: L6 CC50 over IC50	selectivity index	17.9
COC(=O)[C@H](Cc1c[nH]c2ccccc12)NCc1cc2ccccc2nc1OC	Pseudomonas aeruginosa	–	–	64 µg/mL, together with: pentamidine 100 µM	baseline: control	growth	38.2%
CCOC(=O)[C@H](CCc1ccccc1)N[C@H]1CCc2ccccc2N(CC(=O)O)C1=O	Nedd8-cullin1 interaction	neddylation, AlphaScreen	–	100 µM	–	inhibition	55.1%
CN1CCN(c2ncc(-c3ccc4nncc(Nc5ncccn5)c4c3)cn2)CC1	Schistosoma mansoni	–	adult worms	10 µM, 1 h	direction not given	phenotypic severity score	0
COc1cc2c(cc1OC)[C@@H]1C(=O)c3ccc4c(c3O[C@@H]1CO2)C=CC(C)(C)O4	human adenovirus C5 wild type	Western blot	A549	2 µM, 48 h post-infection	–	viral protein levels (E1A, DBP, structural proteins)	decreased
N=C(N)c1ccc(OCc2cccc(COc3ccc(C(=N)N)cc3)c2)cc1	Escherichia coli	–	BW25113	concentration not given, lowest-FICI combination, together with: erythromycin	–	MIC in combination	25 µg/mL
COC(=O)[C@@H](NCc1cc2ccccc2nc1OCc1ccccc1)C(C)C	Pseudomonas aeruginosa	–	–	8 µg/mL, together with: pentamidine 50 µM	baseline: control	growth	101%
OC(Cn1cncn1)(Cn1cncn1)c1ccc(F)cc1F	Candida albicans	broth microdilution	15	24 h, compound alone	–	MIC	1 µg/mL (≈ 3.27 µM)
CO[C@H]1/C=C/O[C@@]2(C)Oc3c(C)c(O)c4c(c3C2=O)C2=NC3(CCN(CC(C)C)CC3)NC2=C(NC(=O)/C(C)=C\C=C\[C@H](C)[C@H](O)[C@@H](C)[C@@H](O)[C@@H](C)[C@H](OC(C)=O)[C@@H]1C)C4=O	Mycobacteroides abscessus	bacterial growth	subsp. abscessus ATCC 19977	–	–	IC50	1600 nM
COc1ccc(Nc2cnnc3cc(-c4ccc(N5CCN(C)CC5)cc4)ccc23)cc1	Schistosoma mansoni	–	adult worms	10 µM, 1 h	direction not given	phenotypic severity score	0
N=C(N)c1ccc(OCc2ccccc2COc2ccc(C(=N)N)cc2)cc1	Escherichia coli	checkerboard	mcr-2 polymyxin-resistant	concentration not given, 20 h, together with: rifampicin	–	MIC of compound in combination	25 µg/mL
